Literature values, collected from citations in different studies.
In brackets after ≈: the same amount, converted by molar mass.
Sequence of UniProt P21917 (whole entry, looked up): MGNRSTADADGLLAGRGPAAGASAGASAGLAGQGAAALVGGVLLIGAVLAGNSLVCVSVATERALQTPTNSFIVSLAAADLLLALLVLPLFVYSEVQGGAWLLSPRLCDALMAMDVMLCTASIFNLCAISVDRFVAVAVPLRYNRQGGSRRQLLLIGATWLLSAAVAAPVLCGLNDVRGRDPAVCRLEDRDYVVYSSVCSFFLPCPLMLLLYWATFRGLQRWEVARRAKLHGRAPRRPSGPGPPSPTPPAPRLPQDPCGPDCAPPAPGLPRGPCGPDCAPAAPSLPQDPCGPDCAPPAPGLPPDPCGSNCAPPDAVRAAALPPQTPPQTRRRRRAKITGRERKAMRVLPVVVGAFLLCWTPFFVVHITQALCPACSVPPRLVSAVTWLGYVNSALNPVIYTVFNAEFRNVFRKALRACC
Sequence of UniProt P25021 (whole entry, looked up): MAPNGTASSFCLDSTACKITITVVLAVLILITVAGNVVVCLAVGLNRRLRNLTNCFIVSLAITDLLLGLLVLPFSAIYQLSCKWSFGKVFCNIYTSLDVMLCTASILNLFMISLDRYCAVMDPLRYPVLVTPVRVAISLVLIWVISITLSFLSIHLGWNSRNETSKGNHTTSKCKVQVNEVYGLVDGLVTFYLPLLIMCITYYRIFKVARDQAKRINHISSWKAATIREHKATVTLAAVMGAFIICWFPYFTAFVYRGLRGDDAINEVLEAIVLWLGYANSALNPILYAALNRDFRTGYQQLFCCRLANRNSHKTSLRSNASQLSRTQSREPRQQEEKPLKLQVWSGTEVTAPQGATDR

Molecule	tested on	test	test system	setting	how to read	endpoint	value
Cn1c(Cn2ccc(C(F)(F)F)c(Oc3cc(Cl)cc(C#N)c3)c2=O)n[nH]c1=O	HIV-1	–	IIIB wild type	–	reference: CC50 over EC50	selectivity index	> 36800
CC(=O)c1ccc(NC(=O)CSc2nc(-c3ccccc3Cl)ns2)cc1	Trypanosoma cruzi	–	Tulahuen C4 LacZ	–	–	IC50	> 32 µM
Cc1nc(N(C)C(=O)Cc2ccc(-c3ccccn3)cc2)sc1S(N)(=O)=O	HSV-2	–	mouse	oral, 15 or 60 mg/kg three times daily, day 3 to 7 post infection	–	mortality	10%
NC(=O)c1ncn([C@@H]2O[C@H](CO)[C@@H](O)[C@H]2O)n1	influenza B virus	viral replication, MTT	Singapore	–	–	EC50	5.1 µM
c1ccc(CNc2nc(Nc3ccccc3)nc3ccccc23)cc1	Trypanosoma cruzi	–	Tulahuen C4 LacZ	–	–	IC50	1.5 µM
CCCCCCCCCCSCC(P(=O)(O)O)P(=O)(O)O	Trypanosoma cruzi	growth	amastigotes	–	–	EC50	> 20 µM
CCOC(=O)c1c(C)n(-c2ccccc2)c2ccc(OC(=O)c3cc(OC)c(OC)c(OC)c3)cc12	Trypanosoma cruzi	–	Tulahuen C4 LacZ	–	–	IC50	13.3 µM
interferon alpha	Norwalk virus	viral replication	HG23 Norwalk virus replicon cells	20 units	–	polymerase protein level	decreased
C=CCN(CC=C)CCc1c[nH]c2ccccc12	D(4) dopamine receptor (DRD4, Homo sapiens, UniProt P21917)	binding	cloned human receptor	with: [3H]N-methylspiperone	–	Ki	> 10 µM
CC(C)(C)NC(=O)N[C@H](C(=O)N1C[C@H]2[C@@H]([C@H]1C(=O)NC(CC1CCC1)C(=O)C(N)=O)C2(C)C)C(C)(C)C (stereo partly drawn)	hepatitis C virus	–	HCV-infected patients	dose not given, with: ribavirin and pegylated interferon alpha	–	cure rate	60 to 80%
CCOc1ccc2cc(-c3nn(CC4CCN(C)CC4)c4ncnc(N)c34)ccc2c1	Neospora caninum	–	pregnant mice	dose not given	–	protection against pup mortality	87%
Cc1ccc(C(C)C)cc1O	bacterial isolates	–	canine otitis externa, multidrug-resistant	–	–	MIC90	200 to 2290 µg/mL (≈ 1330 to 15300 µM)
CC(C)(O/N=C(\C(=O)N[C@@H]1C(=O)N2C(C(=O)[O-])=C(C[n+]3ccccc3)CS[C@H]12)c1csc(N)n1)C(=O)O	Acinetobacter baumannii	–	OXA-225 producing	–	–	MIC	> 32 µg/mL
COCCNC(=O)c1ccc(OC2CCN(Cc3ccc(F)c(F)c3)CC2)c(Cl)c1	Trypanosoma cruzi	–	Tulahuen C4 LacZ	–	–	IC50	> 32 µM
C=CCN(CC=C)CCc1c[nH]c2ccc(Br)cc12	Histamine H2 receptor (HRH2, Homo sapiens, UniProt P25021)	–	–	–	–	Ki	> 10 µM

Some of these lines once more:
Molecule	tested on	test	test system	setting	how to read	endpoint	value
CC(=O)c1ccc(NC(=O)CSc2nc(-c3ccccc3Cl)ns2)cc1	Trypanosoma cruzi	–	Tulahuen C4 LacZ	–	–	IC50	> 32 µM
Cc1nc(N(C)C(=O)Cc2ccc(-c3ccccn3)cc2)sc1S(N)(=O)=O	HSV-2	–	mouse	oral, 15 or 60 mg/kg three times daily, day 3 to 7 post infection	–	mortality	10%
